Results gathered from unrelated publications.
A part holds a random share of what one study measured. Values joined by “and” are separate records of one study, mostly repeats; a detail may differ.
Chain of UniProt Q61527 (whole entry, looked up): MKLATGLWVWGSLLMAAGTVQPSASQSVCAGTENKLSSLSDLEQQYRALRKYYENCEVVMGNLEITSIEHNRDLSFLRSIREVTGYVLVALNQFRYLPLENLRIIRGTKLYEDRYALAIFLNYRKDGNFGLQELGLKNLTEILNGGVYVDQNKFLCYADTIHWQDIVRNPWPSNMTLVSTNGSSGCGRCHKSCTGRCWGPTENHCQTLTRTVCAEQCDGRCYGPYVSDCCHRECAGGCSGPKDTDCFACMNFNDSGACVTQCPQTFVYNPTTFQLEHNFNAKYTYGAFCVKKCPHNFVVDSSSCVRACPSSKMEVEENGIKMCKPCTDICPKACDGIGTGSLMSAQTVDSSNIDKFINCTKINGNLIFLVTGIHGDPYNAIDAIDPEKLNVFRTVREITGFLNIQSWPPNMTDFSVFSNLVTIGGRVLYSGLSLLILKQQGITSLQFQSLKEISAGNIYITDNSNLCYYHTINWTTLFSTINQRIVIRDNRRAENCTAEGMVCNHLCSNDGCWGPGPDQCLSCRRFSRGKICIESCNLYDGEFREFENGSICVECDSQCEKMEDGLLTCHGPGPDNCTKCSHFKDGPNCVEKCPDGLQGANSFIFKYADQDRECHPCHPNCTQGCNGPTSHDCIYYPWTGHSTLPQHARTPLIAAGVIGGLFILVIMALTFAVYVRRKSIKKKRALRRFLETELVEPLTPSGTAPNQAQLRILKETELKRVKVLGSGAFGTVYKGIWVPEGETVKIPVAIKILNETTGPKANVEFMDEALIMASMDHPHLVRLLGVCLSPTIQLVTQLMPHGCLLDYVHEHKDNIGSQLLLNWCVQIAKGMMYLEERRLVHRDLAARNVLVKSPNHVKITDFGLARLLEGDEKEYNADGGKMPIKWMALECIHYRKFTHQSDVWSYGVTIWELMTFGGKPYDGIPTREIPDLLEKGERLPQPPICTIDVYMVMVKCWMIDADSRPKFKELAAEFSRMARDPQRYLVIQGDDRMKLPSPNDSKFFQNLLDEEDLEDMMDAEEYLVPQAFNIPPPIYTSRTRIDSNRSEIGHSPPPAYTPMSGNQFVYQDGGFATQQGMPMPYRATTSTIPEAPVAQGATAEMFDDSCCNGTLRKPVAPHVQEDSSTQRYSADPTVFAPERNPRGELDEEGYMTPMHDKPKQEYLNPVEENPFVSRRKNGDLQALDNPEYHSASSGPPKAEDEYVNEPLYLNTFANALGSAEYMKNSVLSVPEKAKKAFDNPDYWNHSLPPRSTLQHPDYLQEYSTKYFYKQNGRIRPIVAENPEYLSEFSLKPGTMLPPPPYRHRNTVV

Set 1 — cell line: mouse MPNST tumor cells; method: high-content immunofluorescence imaging; measured: nuclear SOX9; concentration: 10 µM; time: 12 h; setting: mean of 2 replicates; reference: DMSO control; reading: higher = more nuclear SOX9
| SMILES | nuclear SOX9 intensity |
| --- | --- |
| Nc1[nH]ncc1-c1cc(Cl)ccc1Oc1cc(F)c(S(=O)(=O)Nc2cscn2)cc1Cl | 124 % of DMSO |
| Cc1ccc(C(=O)c2ccc(CC(=O)O)n2C)cc1 | 105 % of DMSO |
| CCCCCCCCCCCCc1ccc(S(=O)(=O)Nc2nncs2)cc1 | 91.7 % of DMSO |
| NS(=O)(=O)c1cccc2c1c([N+](=O)[O-])cc1nc(O)c(O)nc12 | 90.2 % of DMSO |
| CCS(=O)(=O)N(C)[C@H]1c2cc(C#N)ccc2OC(C)(C)[C@@H]1O (racemic) | 119 % of DMSO |
| Cc1ccc(N(CC2=NCCN2)c2cccc(O)c2)cc1 | 118 % of DMSO and 119 % of DMSO |
| COC(=O)C1=C(C)NC(C)=C([N+](=O)[O-])[C@H]1c1ccccc1C(F)(F)F | 106 % of DMSO |
| Cc1c(F)cc(C(=O)NC2CC2)cc1-c1c(F)cn2c(C(C)(C)C)nnc2c1F | 96.5 % of DMSO |
| CC(C)NC(=N)NC(=N)Nc1ccc(Cl)cc1 | 88.7 % of DMSO and 93 % of DMSO |
| CCCCCCCCCCC(O)C1C=CC2C(=O)N(c3ccccc3)C(=O)C2N1Nc1ccc([N+](=O)[O-])cc1 (centres unmarked) | 104 % of DMSO |

Set 2
SMILES: COc1cc(C(=O)N2CCC(N3CCN(C)CC3)CC2)ccc1Nc1ncc2c(n1)N(C)c1ccccc1C(=O)N2C
| target | test | test system | conditions | inhibition |
| --- | --- | --- | --- | --- |
| RSK2 kinase domain 2 (human) | probe labelling, KiNativ, measured: Lys1 site peptide | PBMC lysate (human) | 1 µM, added: ADP acyl-phosphate probe | 25.4% |
| mouse JNK1/JNK2/JNK3 | probe labelling, KiNativ ATP probe | mouse brain lysate | 1 µM, LYS2 site DLkPSNIVVK | -9.4% |
| AMPKa1 and AMPKa2 (mouse) | probe labelling, KiNativ, measured: VAVkILNR peptide, Lys1 site | brain tissue lysate (mouse) | 1 µM, added: ADP acyl-phosphate probe | -14.9% |
| Receptor tyrosine-protein kinase erbB-4 (Erbb4, Mus musculus, UniProt Q61527) | KiNativ profiling | mouse brain lysate | 1 µM, LYS1 site, added: ATP acyl phosphate probe | -9.3% |
| MAP2K6 (mouse) | probe labelling, KiNativ ATP probe | mouse brain lysate | 1 µM, LYS2 labelled site | -1.6% |
| QSK (mouse) | probe labelling, KiNativ, measured: LYS2 site peptide | brain tissue lysate (mouse) | 0.1 µM, added: ADP acyl-phosphate probe | 11.9% |
| OSR1 (mouse) | probe labelling, KiNativ ATP probe | mouse brain lysate | 0.1 µM, LYS2 labelled site | -38.2% |
| IGF1R (mouse) | probe labelling, KiNativ ADP probe | mouse brain lysate | 1 µM, LYS1 labelled site | 7.6% |

Set 3 — organism: Plasmodium berghei; action: inhibitor; cells: Huh-7; strain: GFP-expressing, liver stage; concentration: 10 µM; time: 24 h; reference: untreated control
| SMILES | infection rate |
| --- | --- |
| CC[C@H]1OC(=O)[C@H](C)C(=O)[C@H](C)[C@@H](O[C@@H]2O[C@H](C)C[C@H](N(C)C)[C@H]2O)[C@](C)(OC)C[C@@H](C)C(=O)[C@H](C)[C@H]2N(CCCCn3cnc(-c4cccnc4)c3)C(=O)O[C@]12C | 86.9% |
| CCC1(C)OC(=O)N(C)C1=O (centres unmarked) | 96.2% |
| OCc1cccnc1 | 97.4% |
| CCN1CCN(C(=O)N[C@@H](C(=O)N[C@@H]2C(=O)N3[C@@H]2SC(C)(C)[C@@H]3C(=O)O)c2ccccc2)C(=O)C1=O | 98% |
| COc1ccnc(C[S+]([O-])c2nc3cc(OC(F)F)ccc3[nH]2)c1OC (centres unmarked) | 87.5% |
| OCCN1CCN(CCCN2c3ccccc3Sc3ccc(Cl)cc32)CC1 | 37% |
| OC[C@H]1O[C@H](O[C@]2(CCl)O[C@H](CCl)[C@@H](O)[C@@H]2O)[C@H](O)[C@@H](O)[C@H]1Cl | 116% |
| CC[C@H]1OC(=O)C[C@@H](O)[C@H](C)[C@@H](O[C@@H]2O[C@H](C)[C@@H](O[C@H]3C[C@@](C)(O)[C@@H](O)[C@H](C)O3)[C@H](N(C)C)[C@H]2O)[C@@H](CC=O)C[C@@H](C)C(=O)/C=C/C(C)=C/[C@@H]1CO[C@@H]1O[C@H](C)[C@@H](O)[C@@H](OC)[C@H]1OC | 91.9% |
| CCN(CC)CCOC(=O)c1ccc(N)cc1 | 83.9% |
| OC(CCN1CCCCC1)(c1ccccc1)C1CCCCC1 (centres unmarked) | 95% |
| Clc1ccc(C(Cn2ccnc2)OCc2ccsc2Cl)c(Cl)c1 (centres unmarked) | 29.4% |
| CN(C)[C@@H]1C(O)=C(C(N)=O)C(=O)[C@@]2(O)C(O)=C3C(=O)c4c(O)cccc4[C@@](C)(O)[C@H]3[C@H](O)[C@@H]12 | 91.2% |
| Nc1nc(N)c2nc(-c3ccccc3)c(N)nc2n1 | 96.5% |

Mixed results
| Structure (SMILES) | cell line | test | conditions | endpoint | result |
| --- | --- | --- | --- | --- | --- |
| Cn1cncc1[C@@](O)(COc1ccc(C#N)cc1-c1ccc(OC(F)(F)F)cc1)c1ccc(C#N)cc1 | HEK293T | high-content imaging | 10 µM, 24 h | mitotic cells | 87.9% |

Some of these lines once more (set 2):
| target | test | test system | conditions | inhibition |
| --- | --- | --- | --- | --- |
| mouse JNK1/JNK2/JNK3 | probe labelling, KiNativ ATP probe | mouse brain lysate | 1 µM, LYS2 site DLkPSNIVVK | -9.4% |
| OSR1 (mouse) | probe labelling, KiNativ ATP probe | mouse brain lysate | 0.1 µM, LYS2 labelled site | -38.2% |
| AMPKa1 and AMPKa2 (mouse) | probe labelling, KiNativ, measured: VAVkILNR peptide, Lys1 site | brain tissue lysate (mouse) | 1 µM, added: ADP acyl-phosphate probe | -14.9% |
| Receptor tyrosine-protein kinase erbB-4 (Erbb4, Mus musculus, UniProt Q61527) | KiNativ profiling | mouse brain lysate | 1 µM, LYS1 site, added: ATP acyl phosphate probe | -9.3% |
| MAP2K6 (mouse) | probe labelling, KiNativ ATP probe | mouse brain lysate | 1 µM, LYS2 labelled site | -1.6% |
